Experimental data collected from several papers.
Each numbered part is a random draw from the data of one study; scales do not carry over between parts. Changes are numbered by the printed parent chain.

Block 1
Target: Centromere-binding protein 1, full length, N-terminal tag (CBF1, Saccharomyces cerevisiae, UniProt P17106, residues 1-351)
Chain of UniProt P17106 (whole entry, looked up): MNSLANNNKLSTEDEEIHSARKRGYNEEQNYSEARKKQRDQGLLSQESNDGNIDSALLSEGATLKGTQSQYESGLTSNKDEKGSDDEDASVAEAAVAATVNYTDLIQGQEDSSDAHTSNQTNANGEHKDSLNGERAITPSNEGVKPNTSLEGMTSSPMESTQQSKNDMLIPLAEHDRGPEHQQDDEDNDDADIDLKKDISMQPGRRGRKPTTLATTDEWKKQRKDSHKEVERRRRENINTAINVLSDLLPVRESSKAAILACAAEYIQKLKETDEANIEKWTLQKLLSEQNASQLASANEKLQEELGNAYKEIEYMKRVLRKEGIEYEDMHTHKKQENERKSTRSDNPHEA
Method: protein-binding microarray
Form: double-stranded DNA, one strand shown
Sample: in vitro
Tested at: 0.8 µM
Setting: whole 60-bp probe, no competitor
Direction: higher = stronger binding
All sequences stand within: … GTCTTGATTCGCTTGACGCTGCTG
| Oligonucleotide | fluorescence intensity |
| --- | --- |
| GAACTAGGGAAATTGCACATGGAAGTATCTGGATAG | 554 a.u. |
| GAAAATTTTTGAGCCCACATGCTTTCGAATGAGTAG | 677 a.u. |
| CTATTATGGCGCTAACACGTTAAACATTTGTTATTC | 535 a.u. |
| GAAGGCATAATTACTTGCCTGATGACGAATAACTAG | 602 a.u. |
| CTAAACTGTGTACGTGATTTCTTTGTCCCCTGCTTC | 736 a.u. |
| CTATTTAATTCTTGTCACCAGTAAACAGAACATTTC | 621 a.u. |
| GAACACTCCAAGAACCGCGTGAAGAAAATGTCATAG | 585 a.u. |
| GAATGCATACCCGCACTCGTGCTTACATGCTAATAG | 581 a.u. |
| GAATCGATTAATTATAATCACGTTGTTCCTTCCTAG | 2150 a.u. |
| CTAGTCATTCACAGACACGTTTAACAAAACACCTTC | 666 a.u. |
| GAAAGGGCCCTTAAAGGCGTGACTACAAAAAGGTAG | 1720 a.u. |
| CTACCGATTAAAGTGGTCGTGATTCAGTATTTTTTC | 768 a.u. |
| GAACTAGAATTAAATCACGCGAAGATCATTAAATAG | 892 a.u. |
| CTATTCGCGTACCACCACCATTACACATGTATATTC | 613 a.u. |
| CTATATTTTGTATATCTGATGCTATAGCCTCTATTC | 533 a.u. |
| GAATTAGGTTAAAAGCACGTGGCACGAGAAACGTAG | 7070 a.u. |
| GAAACCATGTATGCTCATGACTCCATATAGGACTAG | 572 a.u. |
| CTAGGACATTCATGCAACGTGGTAAATATGTGTTTC | 583 a.u. |
| CTACAAGAAAAAGGTGACCCACGGTGGTGGGAATTC | 508 a.u. |

Block 2
Target: ABI1, truncated, D143A, DHFR fusion (Arabidopsis thaliana)
Method: DHFR PCA, deep sequencing
Sample: yeast
Setting: methotrexate growth selection, single substitutions
With: (+)-ABA 2500 µM
Reference: wild-type fitted maximum
Direction: higher = stronger binding
Starting sequence: PYL1, truncated, DHFR fusion (Arabidopsis thaliana); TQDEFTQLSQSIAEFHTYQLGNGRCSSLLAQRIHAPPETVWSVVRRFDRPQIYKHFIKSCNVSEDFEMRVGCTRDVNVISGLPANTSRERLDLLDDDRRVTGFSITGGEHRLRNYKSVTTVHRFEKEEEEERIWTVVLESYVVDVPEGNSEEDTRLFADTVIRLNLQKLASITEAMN; partner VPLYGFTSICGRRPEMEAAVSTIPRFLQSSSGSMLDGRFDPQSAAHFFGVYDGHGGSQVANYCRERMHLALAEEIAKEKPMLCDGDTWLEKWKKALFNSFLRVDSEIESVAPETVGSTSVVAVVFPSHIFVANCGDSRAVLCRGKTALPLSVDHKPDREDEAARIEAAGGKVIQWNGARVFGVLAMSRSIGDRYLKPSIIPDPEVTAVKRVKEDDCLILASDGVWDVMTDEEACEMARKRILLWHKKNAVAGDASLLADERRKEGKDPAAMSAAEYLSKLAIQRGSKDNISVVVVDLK
| Variant | relative binding score |
| --- | --- |
| P146W | 61.4% |
| S80K | 85% |
| S117P | 23.3% |
| L169W | -12.2% |
| E67Y | 92.3% |
| V142W | 82.7% |
| M68G | 87.1% |
| H122D | 95.3% |
| A13Q | 102% |
| V145C | 92.9% |
| R46V | 94.7% |
| D65F | 94.7% |
| A170G | 94.6% |
| S42T | 98.2% |
| L169N | -19.4% |
| K116D | 39% |

Block 3
Target: CCND3, cyclin fold, Cln2 fusion (human)
Method: yeast growth competition, sequencing
Sample: yeast
Setting: weak parent motif
Reference: not given
Direction: higher = stronger binding
Starting sequence: SAMHD1 docking peptide (human); ASKSRVQLFKDDP
| Variant | normalised enrichment score |
| --- | --- |
| D12V | 0.566 |
| L8K | 0.308 |
| S4G | -0.136 |
| K10A | 0.0182 |
| Q7L | -0.0137 |
| S2Y | 0.251 |
| L8I | 0.109 |
| D12A | 0.167 |
| V6A | -0.0321 |
| L8S | -0.365 |
| L8V | 0.083 |
| K10H | -0.0554 |
| K10I | 0.187 |
| D12L | -0.015 |
| F9L | 0.0115 |
| S2W | 0.423 |
| F9N | 0.361 |
| L8E | 0.232 |
| F9D | 0.31 |
| V6L | -0.0277 |
| S4D | -0.0346 |
| S2E | 0.152 |
| D11Y | 0.141 |
| F9V | 0.265 |
| S2A | 0.191 |

Block 4
Target: Ras GTPase-activating protein-binding protein 1, full length (G3BP1, Homo sapiens, UniProt Q13283)
Chain of UniProt Q13283 (whole entry, looked up): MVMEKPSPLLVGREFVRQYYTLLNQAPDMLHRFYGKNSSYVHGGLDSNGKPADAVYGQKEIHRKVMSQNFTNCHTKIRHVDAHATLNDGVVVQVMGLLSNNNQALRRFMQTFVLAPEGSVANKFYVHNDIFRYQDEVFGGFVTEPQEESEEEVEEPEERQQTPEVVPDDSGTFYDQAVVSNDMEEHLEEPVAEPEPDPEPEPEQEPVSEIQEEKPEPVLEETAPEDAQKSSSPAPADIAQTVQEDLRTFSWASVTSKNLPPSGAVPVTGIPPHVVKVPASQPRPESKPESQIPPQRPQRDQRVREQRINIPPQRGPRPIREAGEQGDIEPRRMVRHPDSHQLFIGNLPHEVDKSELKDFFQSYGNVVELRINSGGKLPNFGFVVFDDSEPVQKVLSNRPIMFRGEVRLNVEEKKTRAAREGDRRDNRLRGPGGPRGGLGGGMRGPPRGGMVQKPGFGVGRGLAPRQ
Method: RNA Bind-n-Seq
Form: RNA
Sample: in vitro
Tested at: 200 nM
Setting: whole 134-nt RNA, ends assumed
With: 150 mM LiCl
Reference: input library
Direction: higher = stronger binding
All molecules: 7-deaza-guanosine replaces G
All sequences stand within: GGGAGUUCUACAGUCCGACGAUC … UGGAAUUCUCGGGUGUCAAGG
| Oligonucleotide | log2 enrichment |
| --- | --- |
| ACCUUGCAGGUGGGCAUCUUUGGGAAGUGGGGCAAGGGGGGGAUAGGGAGGGGGGUAACACUUUGGGAACAGGUGGUCCCAGGUCGUUUC | 0.475 |
| ACCAUGCAGGUGGGCAUCUUUGGGAAGUGGGGCAAGGGGGGGAUAGGGAGGGGGGUAACACUUAAAGAACAGGUGGUCCCAGGUCGUUUC | -4.47e-05 |
| UGGGACGUGGAUUUUGUUUAUUUUUUUAGCUCAUUUCCAGGGGUGGGAAUUUUUUUUUAAUAUGUGUCAUGAAUAAAGUUGUUUUUGAAA | 0.156 |
| CUGUGCUACACAUCGUAUGUACCGAAUCGGGGAAAAAAAGGAAAAAAAGGGAAAAAAAGGGAAAGUAUUAUGUUACGCCGUUCGGAUCUG | -0.0932 |
| CAAGUCCUGUGCUACACAUCGUAUGUACCGAAUCAAACCCAAAUUUAAAUUUAAAAAAGUAUUAUGUUACGCCGUUCGGAUCUGCACUUC | 0.641 |
| UAACUUUAGAGGAGGAUCUGAUGGAUAUGGCAGUGGACGUGGAUUUGGGGAUGGCUAUAAUGGGUAUGGAGGAGGACCUGGAGCUGGCAA | -0.107 |
| UCAAGUCCUGUGCUACACAUCGUAUGUACCGAAUCGGGGAAAGGAAAGGGAAAGGAAAGUAUUAUGUUACGCCGUUCGGAUCUGCACUUC | -0.2 |
| GCAGGAAGUAAAAACAAAUGGAAAUGCUUCGGAUAGUGGCAGGGGUGGGGGUUGCUAAGGAAAGGGUGGGACGGGAGUGGGUAAAGAGUU | 0.02 |

A few entries again (block 1):
| Oligonucleotide | fluorescence intensity |
| --- | --- |
| GAACTAGGGAAATTGCACATGGAAGTATCTGGATAG | 554 a.u. |
| GAAAATTTTTGAGCCCACATGCTTTCGAATGAGTAG | 677 a.u. |
| CTATTATGGCGCTAACACGTTAAACATTTGTTATTC | 535 a.u. |
| GAAGGCATAATTACTTGCCTGATGACGAATAACTAG | 602 a.u. |
| CTAAACTGTGTACGTGATTTCTTTGTCCCCTGCTTC | 736 a.u. |
